Experimental data collected from several papers.
Lines come from different studies, so protocols differ. Several values in a cell are separate wells, animals, samples, runs or records. ± marks the error that the study gave. Converted amounts (≈) assume the structure as drawn.

SMILES	assay	test system	conditions	scale	endpoint	result
CC(C)C[C@H](NC(=O)[C@H](CCC(N)=O)NC(=O)[C@H](CCCNC(=N)N)NC(=O)[C@H](CO)NC(=O)[C@H](CO)NC(=O)[C@H](CC(C)C)NC(=O)[C@@H](NC(=O)CNC(=O)[C@@H]1CCCN1C(=O)[C@@H](N)CCCNC(=N)N)C(C)C)C(=O)NCC(=O)N[C@@H](CC(C)C)C(=O)N1CCC[C@H]1C(=O)NCC(=O)N1CCC[C@H]1C(=O)N1CCC[C@H]1C(=O)N[C@@H](CC(=O)O)C(=O)N[C@H](C(=O)N1CCC[C@H]1C(=O)N[C@@H](CC(=O)O)C(=O)N[C@@H](Cc1c[nH]cn1)C(=O)N[C@@H](C)C(=O)N[C@@H](C)C(=O)N[C@@H](Cc1ccc(O)cc1)C(=O)N[C@@H](Cc1c[nH]cn1)C(=O)N1CCC[C@H]1C(=O)N[C@@H](Cc1ccccc1)C(=O)O)C(C)C	LC-MS/MS	human serum	concentration not given, 4 h, room temperature, tube without gel separator	baseline: initial concentration	change in serum concentration	139 ± 52%
CCCCCOc1ccc(-c2ccc(-c3ccc(C(=O)N[C@H]4C[C@@H](O)[C@@H](O)NC(=O)[C@@H]5[C@@H](O)[C@@H](C)CN5C(=O)[C@H]([C@@H](C)O)NC(=O)[C@H]([C@H](O)[C@@H](O)c5ccc(O)cc5)NC(=O)[C@@H]5C[C@@H](O)CN5C(=O)[C@H]([C@@H](C)O)NC4=O)cc3)cc2)cc1	–	human neonates and infants, plasma	intravenous, 1.5 mg/kg/day after 3 mg/kg loading, 0-24 h	–	AUC steady state	84300 ng·h/mL
O=C(NCCS)c1cccc(C(=O)NCCS)c1	–	rat Sprague-Dawley male	intravenous, 1 mg/kg, 0.25 h	–	plasma concentration	354 ng/mL
Cc1sc2c(c1C)C(c1ccc(Cl)cc1)=N[C@@H](CC(=O)OC(C)(C)C)c1nnc(C)n1-2	LC-MS	Ringer's solution	50 ng/mL, time not given, plastic vessel, plastic vial	–	recovery vs nominal	0.53% and 0.65%
CCCCCn1cc(-c2cn(C34CC5CC(CC(C5)C3)C4)nn2)c(=O)c2cc(-c3ccco3)ccc21	HPLC	water with 5% DMSO	18 h	–	kinetic solubility	132 µg/mL (≈ 274 µM)
Cc1ccc(Nc2ccc3c(c2)C(c2ccccc2F)=NC(C)C(=O)N3)cc1 (stereo not shown)	shake flask	PBS	24 h, pH 7.4	–	solubility	4.33 µM (≈ 1.62 µg/mL)
O=c1[nH]c(Cc2ccccn2)nc2c1cnn2C1CCOCC1	–	male human, plasma	oral, 5 mg, single dose	–	Tmax	30 min
CCCCCCCCCCCCCCCCCC(=O)N[C@H](C(=O)N[C@H](C(=O)N[C@@H](CCCNC(=N)N)C(=O)N[C@@H](CCCNC(=N)N)C(=O)N[C@@H](C)C(=O)N[C@@H](CC(=O)O)C(=O)N[C@@H](CCCNC(=N)N)C(=O)N[C@@H](C)C(=O)N[C@@H](C)C(=O)N[C@H](C(=O)N1CCC[C@H]1C(=O)NCC(=O)NCC(=O)NCC(=O)NCC(=O)N[C@@H](CCCNC(=N)N)C(=O)NCC(=O)N[C@@H](CC(=O)O)C(=O)O)C(C)C)C(C)C)[C@@H](C)CC	ELISA	Sprague Dawley rat male, blood	intravenous, 2.415 mg/kg	–	clearance	72.5 ± 10.7 mL/min/kg
CCCCCCCCCCCC[N+](C)(C)C.[Br-]	–	air-water interface	–	–	surface partition coefficient	7.42e-07 m
CCCCCOc1ccc(-c2cc(-c3ccc(C(=O)N[C@H]4C[C@@H](O)[C@@H](O)NC(=O)[C@@H]5[C@@H](O)[C@@H](C)CN5C(=O)[C@H]([C@H](O)CC(N)=O)NC(=O)[C@H]([C@H](O)[C@@H](O)c5ccc(O)c(OS(=O)(=O)O)c5)NC(=O)[C@@H]5C[C@@H](O)CN5C(=O)[C@H]([C@@H](C)O)NC4=O)cc3)no2)cc1	–	human paediatric patients 6 to sample C years, plasma	intravenous, 4.5 mg/kg once daily, day 7, geometric mean	–	weight-normalised steady-state clearance	0.272 mL/min/kg
COC(=O)N[C@H](C(=O)N1CCC[C@H]1C(=O)Nc1ccc([C@@H]2CC[C@@H](c3ccc(NC(=O)[C@@H]4CCCN4C(=O)[C@@H](NC(=O)OC)C(C)C)cc3)N2c2ccc(C(C)(C)C)cc2)cc1)C(C)C	–	healthy human volunteers, plasma	oral, dose not given, alone, pravastatin interaction study	–	AUC(0-24)	1020 ng·h/mL
[123I]c1cncc(OC[C@@H]2CCN2)c1	SPECT	human, parietal lobe	intravenous bolus, 9.1 mCi	baseline: tissue over plasma	tissue/plasma ratio	10.9
CN[C@@](C)(C[18F])C(=O)O	–	SCID mouse U87 xenograft, spleen	60 min, post injection	–	tissue uptake	12 ± 1.2 %ID/g
CSCC[C@@H]1NC(=O)[C@H](CC(=O)O)NC(=O)CNC(=O)[C@H](CCCNC(=N)N)NC(=O)[C@H](C)NC(=O)[C@H](CCC(=O)O)NC(=O)[C@H](CCCNC(=N)N)NC(=O)[C@@H]2CSSC[C@@H]3NC(=O)[C@H](CO)NC(=O)[C@H]([C@@H](C)O)NC(=O)[C@@H]4CCCN4C(=O)[C@H](C)NC(=O)[C@H](Cc4c[nH]c5ccccc45)NC(=O)[C@H](CC(=O)O)NC(=O)CNC(=O)[C@H](CCCNC(=N)N)NC(=O)CNC(=O)[C@H](CCC(N)=O)NC(=O)[C@@H]4CCCN4C(=O)[C@@H](NC(=O)CNC(=O)C(C)F)CSSC[C@H](NC(=O)CNC(=O)[C@H](C)NC(=O)[C@H](CC(C)C)NC(=O)[C@H](CSSC[C@@H](C(=O)NCC(N)=O)NC(=O)[C@H]([C@@H](C)O)NC(=O)[C@H](CCCNC(=N)N)NC(=O)[C@@H]4CCCN4C1=O)NC(=O)[C@H](CC(=O)O)NC(=O)[C@H](CO)NC(=O)[C@H](CC(=O)O)NC(=O)[C@H](CCC(N)=O)NC(=O)[C@H](CO)NC3=O)C(=O)N[C@@H](C(C)C)C(=O)N2 (stereo partly shown) [fluorine-18 labelled]	–	nude mice, U-87 MG xenograft, blood	intravenous, 2.5 h, together with: cyclo(RGDyK) 330 µg coinjected	–	tissue uptake	0.3 ± 0.09 %ID/g
CC(=O)N[C@H](CCCCNC(=O)C(C)F)C(=O)N[C@@H](CS)C(=O)N[C@@H](CS)C(=O)N[C@@H](CCC(=O)O)C(=O)N[C@@H](Cc1c[nH]cn1)C(=O)N[C@H](Cc1ccccc1)C(=O)N[C@@H](CCCNC(=N)N)C(=O)N[C@@H](Cc1c[nH]c2ccccc12)C(=O)N[C@@H](CS)C(=O)N[C@@H](CCCNC(=N)N)C(=O)N1CCC[C@H]1C(=O)N[C@H](C(N)=O)C(C)C (stereo partly shown) [fluorine-18 labelled]	–	C57BL/6 mice, male, B16-F10 tumour, pancreas	intravenous, 2 h	–	tissue uptake	0.18 ± 0.03 %ID/g
COc1cc2c(cc1OC)C(=O)C(CC1CCN(Cc3ccccc3)CC1)C2 (stereo not shown)	–	human	oral, 5 mg daily, 3 days	–	systolic blood pressure	116 mmHg
Oc1cccc2ccccc12	fish short-term reproduction	Oryzias latipes, female, water, flow-through	258 µg/L, end of exposure	–	body weight	697 ± 43 mg
CCCCCOc1ccc(-c2ccc(-c3ccc(C(=O)N[C@H]4C[C@@H](O)[C@@H](OCC[N+](C)(C)C)NC(=O)[C@@H]5[C@@H](O)[C@@H](C)CN5C(=O)[C@H]([C@@H](C)O)NC(=O)[C@H]([C@H](O)[C@@H](O)c5ccc(O)cc5)NC(=O)[C@@H]5C[C@@H](O)CN5C(=O)[C@H]([C@@H](C)O)NC4=O)cc3)cc2)cc1	–	healthy adult human, plasma	subcutaneous, 10 mg	–	AUC(0-t)	34000 ng·h/mL
CCCCCCCCCC[N+](C)(C)CCCCCCCCCC	substrate depletion	human liver microsomes	0.5 µM, 0 to 3 h, 37 °C, together with: NADPH	–	intrinsic clearance	0.966 mL/h/mg protein
O=c1c(O[C@@H]2O[C@H](CO)[C@@H](O)[C@H](O)[C@H]2O)c(-c2ccc(O)c(O)c2)oc2cc(O)cc(O)c12	–	rat, liver	intravenous, 5 mg/kg, 7 days	baseline: control	PXR protein level increase	69.7%
O=C(CC(=O)c1ccccc1)c1ccccc1	–	male C57BL/6J mouse, Nrf2 wild type, plasma	oral, 500 mg/kg	–	terminal half-life	360 min
Oc1ccc2ccc3c4ccccc4cc4ccc1c2c43	UPLC-AMS	human, plasma	oral, 100 ng of [14C]-BaP	–	AUC	20.3 ± 18.4 fg BaP equivalents·h/mL

For quick reference, copied from above:
SMILES	assay	test system	conditions	scale	endpoint	result
CSCC[C@@H]1NC(=O)[C@H](CC(=O)O)NC(=O)CNC(=O)[C@H](CCCNC(=N)N)NC(=O)[C@H](C)NC(=O)[C@H](CCC(=O)O)NC(=O)[C@H](CCCNC(=N)N)NC(=O)[C@@H]2CSSC[C@@H]3NC(=O)[C@H](CO)NC(=O)[C@H]([C@@H](C)O)NC(=O)[C@@H]4CCCN4C(=O)[C@H](C)NC(=O)[C@H](Cc4c[nH]c5ccccc45)NC(=O)[C@H](CC(=O)O)NC(=O)CNC(=O)[C@H](CCCNC(=N)N)NC(=O)CNC(=O)[C@H](CCC(N)=O)NC(=O)[C@@H]4CCCN4C(=O)[C@@H](NC(=O)CNC(=O)C(C)F)CSSC[C@H](NC(=O)CNC(=O)[C@H](C)NC(=O)[C@H](CC(C)C)NC(=O)[C@H](CSSC[C@@H](C(=O)NCC(N)=O)NC(=O)[C@H]([C@@H](C)O)NC(=O)[C@H](CCCNC(=N)N)NC(=O)[C@@H]4CCCN4C1=O)NC(=O)[C@H](CC(=O)O)NC(=O)[C@H](CO)NC(=O)[C@H](CC(=O)O)NC(=O)[C@H](CCC(N)=O)NC(=O)[C@H](CO)NC3=O)C(=O)N[C@@H](C(C)C)C(=O)N2 (stereo partly shown) [fluorine-18 labelled]	–	nude mice, U-87 MG xenograft, blood	intravenous, 2.5 h, together with: cyclo(RGDyK) 330 µg coinjected	–	tissue uptake	0.3 ± 0.09 %ID/g
CC(=O)N[C@H](CCCCNC(=O)C(C)F)C(=O)N[C@@H](CS)C(=O)N[C@@H](CS)C(=O)N[C@@H](CCC(=O)O)C(=O)N[C@@H](Cc1c[nH]cn1)C(=O)N[C@H](Cc1ccccc1)C(=O)N[C@@H](CCCNC(=N)N)C(=O)N[C@@H](Cc1c[nH]c2ccccc12)C(=O)N[C@@H](CS)C(=O)N[C@@H](CCCNC(=N)N)C(=O)N1CCC[C@H]1C(=O)N[C@H](C(N)=O)C(C)C (stereo partly shown) [fluorine-18 labelled]	–	C57BL/6 mice, male, B16-F10 tumour, pancreas	intravenous, 2 h	–	tissue uptake	0.18 ± 0.03 %ID/g
COc1cc2c(cc1OC)C(=O)C(CC1CCN(Cc3ccccc3)CC1)C2 (stereo not shown)	–	human	oral, 5 mg daily, 3 days	–	systolic blood pressure	116 mmHg
